Experimental data of several laboratories.
Every numbered part comes from another study and shows a few of its results, in no order.

Series 1
Target: RING finger protein unkempt homolog, zinc fingers 1-6, GST-SBP tag (UNK, Homo sapiens, UniProt Q9C0B0, residues 30-357)
Chain of UniProt Q9C0B0 (30-357, looked up): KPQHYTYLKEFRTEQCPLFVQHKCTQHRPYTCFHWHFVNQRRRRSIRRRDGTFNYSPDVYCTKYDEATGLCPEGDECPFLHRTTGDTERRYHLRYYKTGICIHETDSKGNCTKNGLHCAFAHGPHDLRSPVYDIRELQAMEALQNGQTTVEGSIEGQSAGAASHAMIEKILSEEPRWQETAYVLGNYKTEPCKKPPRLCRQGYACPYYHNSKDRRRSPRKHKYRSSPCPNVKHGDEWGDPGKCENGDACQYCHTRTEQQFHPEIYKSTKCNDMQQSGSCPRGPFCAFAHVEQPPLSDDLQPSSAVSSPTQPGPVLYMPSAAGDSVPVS
Method: RNA Bind-n-Seq
Form: RNA
Matrix: in vitro
Concentration: not given
Notes: RNA with constant flanks, human-mouse chimeric sites, ends assumed
Relative to: input RNA pool
Reading: higher = stronger binding
Shared flanks, not repeated: GGGAGUUCUACAGUCCGACGAUC … CAACAGAGGAUUGAGCAUCA
| Sequence | bound/input enrichment [ratio] |
| --- | --- |
| AGAUUCCCCCUCCUGAGACCUCCUCCGAAGUUGGAGUCUCUUAUAGAUGGUUCAUCUCCUGUUAGCGUUUUAGUUUGGACCACCCAGCCUUGGACAAUUCCCGCCAACCAGGCAAUUUGC | 1.94 |
| UACAUCACCAAUGUCCUACAAAAUCCUGAUUUGGCUCUGAGAAUGGCUGUGCGGAACAACUUAGCUGGUGCUGAAGAACUCUUUGCCCGGAAAUUUAAUGCUCUCUUCGCCCAGGGAAAC | 0.388 |
| GGCUGCUGGUGACUGUCGGGAGCCGUCUGGAGUUCCCGCCGGAGCGCGGCCAGACUAAUUUUAGAAAAUGCCAAGUAGGAAGUUUGUUGAGGGUGAAGUGGUCAGAGGUCGAUGGCCUGG | 2.5 |
| UUCAAAGAAAAGGGCAGCUGUGUCAUUUCAUAAGUAACUCUGGGGGAUAAGUGGAAGGUUCUUUUGUUUAAUUUUCCCCCAAAUGAAGCCAAAGUGUUUUUUAAGGAACUGAGAAAAAAU | 0.169 |
| UUUGUAUUUAUGCUAAGCACACGUGCUGGUGGUCUUGGCAUCAAUCUUGCAACUGCUGAUGUAGUCAUUUUAUAUGACUCAGAUUGGAAUCCGCAAGUAGAUCUUCAGGCUAUGGACCGU | 0.144 |
| GCAAAGGAUGAUGAGGCGGCAGCUGUUGCCCUUUCCUCCCUGAUUCAUGCUUUGGAUGACUUAGACAUGGUCGCCAUCGUCCGAUAUGCUUAUGACAAAAGAUCUAAUCCUCAAGUUGGU | 0.108 |

Series 2
Target: Interferon regulatory factor 5, full length, phosphomimetic (IRF5, Homo sapiens, UniProt Q13568-2, residues 1-514, K96S/S451D/S453D/S456D/S462D)
Method: protein-binding microarray
Form: double-stranded DNA, one strand shown
Matrix: in vitro
Concentration: 250 nM
Notes: 60-bp whole probe
Added: salmon DNA 0.4 mg/ml
Relative to: random background probes
Reading: higher = stronger binding
Shared flanks, not repeated: GCCTAGCAC … GTCTTGATTCGCTTGACGCTGCTG
| Sequence | log fluorescence [z-score] |
| --- | --- |
| CTAGGTATCGGTTTCGGTTAGTGCTAG | 11 |
| GACGATTTCGGGTATCGGGACGTGCTA | 4.53 |
| TCAGAACTGAGTCTCGATTAGTGCTAG | 0.596 |
| TTAGGTTTCCTTATCGTTTAGTGCTAG | 2.09 |
| GACGGACTGCTATTGCTGACGTGCTAG | -0.531 |
| GGGAACTTAAACCTCTAAAGGTGCTAG | -0.185 |
| CTAGGTATCGGGACTGGGTTAGTGCTA | 0.935 |
| GACGGACTTCTTTTCCTGACGTGCTAG | -0.0533 |
| GCCGGTATCGACTTTCGGGACGTGCTA | 7.26 |
| CACTCTCTGCTTGTATCTGGGTGCTAG | 0.598 |
| GACTGACTGGGTATCGGGACGTGCTAG | 0.479 |

Series 3
Target: Histone acetyltransferase KAT6A, both winged helices, GST fusion (KAT6A, Homo sapiens, UniProt Q92794, residues 1-181)
Method: protein binding microarray
Form: double-stranded DNA, one strand shown
Matrix: in vitro
Concentration: not given
Notes: 8-mer, flanks averaged, mean of 2 arrays, mostly near background
Relative to: not given
Reading: higher = stronger binding
Construct (chain): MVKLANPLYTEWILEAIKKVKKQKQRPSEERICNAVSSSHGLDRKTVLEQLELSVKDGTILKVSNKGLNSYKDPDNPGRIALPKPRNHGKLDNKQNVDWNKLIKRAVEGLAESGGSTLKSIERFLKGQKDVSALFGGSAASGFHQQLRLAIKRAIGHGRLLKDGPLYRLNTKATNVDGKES
| Sequence | E-score |
| --- | --- |
| AAGCTGAC | -0.0972 |
| AGTTAGCA | -0.136 |
| TGAACGAA | -0.195 |
| CGATGCCA | -0.147 |
| CCCGATAA | 0.038 |
| ATGTGTCG | -0.0691 |
| CCCATAAC | -0.185 |
| GATCCGGC | 0.0783 |

Mixed results
| Substance | target | assay | system | conditions | how to read | endpoint | value |
| --- | --- | --- | --- | --- | --- | --- | --- |
| PhoQ, residues 284 288 289 292 302 303 HSYLQF | PhoP, residues 12 14 15 18 19 NQCAL (Escherichia coli, UniProt P23836) | Sort-seq, item: YFP reporter | E. coli | PhoQ-PhoP variant library, added: 10 µM Mg2+ | relative to: high Mg2+ state, higher = stronger signaling | fold induction | 5.34 |

A few entries again (series 2):
| Sequence | log fluorescence [z-score] |
| --- | --- |
| CACTCTCTGCTTGTATCTGGGTGCTAG | 0.598 |
| GACTGACTGGGTATCGGGACGTGCTAG | 0.479 |
